Results pooled from the literature.
Each line is one published result; not all experiments were run side by side. Numbers after ± are the reported error.
Organism: Plasmodium falciparum

`C[C@H]1[C@@H](OC/C=C\CO[C@H]2O[C@@H]3O[C@@]4(C)CC[C@H]5[C@H](C)CC[C@@H]([C@H]2C)[C@@]35OO4)O[C@@H]2O[C@@]3(C)CC[C@H]4[C@H](C)CC[C@@H]1[C@@]24OO3` has an IC50 of under 0.01 µM (parasite growth; D6; 72 h, blood stage).
The IC50 of `O=C(O)C1Cc2c([nH]c3ccccc23)C(c2c(F)cc(Cl)cc2F)N1` (centres unmarked) is reported as 1.8 ± 0.15 µM (parasite growth; Dd2).
The IC50 of `CCN1CCOCC1c1ccc(Nc2ccnc3cc(Cl)ccc23)cc1` (centres unmarked) is reported as 0.069 µM (parasite growth, SYBR Green; D6; 72 h, blood stage).
For `CCOC(=O)C(=CNc1cc(Cl)ccc1Cl)C(=O)OCC`, the IC50 was 11.3 µM (parasite growth, [3H]hypoxanthine incorporation; NF54 (chloroquine-sensitive)).
For `C[C@H]1[C@@H](OC/C=C\CO)O[C@@H]2O[C@@]3(C)CC[C@H]4[C@H](C)CC[C@@H]1[C@@]24OO3`, the IC50 was under 0.01 µM (parasite growth; D6; 72 h, blood stage).
With `CCN1CCN(c2ccc(Nc3ccnc4cc(Br)ccc34)cc2)CC1` the IC50 was 0.014 µM (parasite growth, SYBR Green; DD2; 72 h, drug-resistant strain, blood stage).
`COc1ccc(C2CC(=O)C3=C(C2)NC(C)=C(C(=O)OC(C)C)C3c2ccccc2C)cc1OC` (centres unmarked) has an IC50 of 0.521 µM (male gamete formation; stage V gametocytes; 24 h, compound washed out).
With `CC(C)(C)NC(=O)[C@@H]1CN(Cc2cnc3occc3c2)CCN1C[C@@H](O)C[C@@H](Cc1ccccc1)C(=O)N[C@H]1c2ccccc2C[C@H]1O` the IC50 was over 8 µM (ring stage growth; INDO; 12 h, early to late ring).
`COc1ccc(C(=O)/C=C/c2ccc(OCc3cn(-c4ccnc5cc(Cl)ccc45)nn3)c(OC)c2)c(OC)c1` has an IC50 of 0.07 µM (parasite growth; DD2; drug-resistant strain, blood stage).
With `Clc1ccc2c(Nc3ccc(N4CCCCC4)cc3)ccnc2c1` the IC50 was 0.197 µM (parasite growth, SYBR Green; D6; 72 h, blood stage).
The IC50 of `COc1cc(C2NC(C(=O)O)Cc3c2[nH]c2ccccc32)c(Br)cc1F` (centres unmarked) is reported as over 10 µM (parasite growth; Dd2).
`CCN1CCN(c2ccc(Nc3ccnc4cc(Cl)c(Cl)cc34)cc2)CC1` has an IC50 of 0.026 µM (parasite growth, SYBR Green; DD2; 72 h, drug-resistant strain, blood stage).
`C=C(C)C1CCC2(CO)CCC3(C)C(CCC4C5(C)CCC(O)C(C)(COC(=O)/C=C\c6ccc(O)cc6)C5CCC43C)C12` (centres unmarked) has an IC50 of 0.63 ± 0.02 µM (parasite growth; Dd2 drug-resistant; 72 h).
The IC50 of `CCCN1CCC(c2ccc(Nc3ccnc4cc(Cl)ccc34)cc2)CC1` is reported as 0.008 µM (parasite growth, SYBR Green; D6; 72 h, blood stage).
`CCN(CC)CCCC(C)Nc1ccnc2cc(Cl)ccc12` (centres unmarked) has an IC50 of 0.108 µM (parasite growth; 72 h).
With `FC(F)(F)Oc1ccc(-c2cnc3cc(Cl)ccc3c2Nc2ccc(N3CCOCC3)cc2)cc1` the IC50 was at least 0.25 µM (parasite growth, SYBR Green; D6; 72 h, blood stage).
`CCN(CC)CCCC(C)Nc1ccnc2cc(Cl)ccc12` (centres unmarked) has an IC50 of 0.009 µM (parasite growth; NF54; blood stage).
`COc1ccc(C(=O)/C=C/c2cc(CN3CCN(c4ccnc5cc(Cl)ccc45)CC3)c(O)c(OC)c2)c(OC)c1` gave an IC50 of 0.3 to 0.6 µM (parasite growth; W2; drug-resistant strain, blood stage).
`CCOC(=O)C1=C(C)NC2=C(C(=O)CC(c3ccc(OC)c(OC)c3)C2)C1c1ccccc1Cl` (centres unmarked) has an IC50 of over 20 µM (female gamete formation, measured: Pfs25; stage V gametocytes; 24 h, compound carried over).
`O=C1C(O)=C([C@H]2CC[C@H](c3ccc(Cl)cc3)CC2)C(=O)c2ccccc21` has an IC50 of 0.0011 µM (parasite growth; 3D7).
